Measured values collected from several papers.
Each numbered part is a random draw from the data of one study; scales do not carry over between parts. Positions count from the first letter of the parent shown.

Sample 1 — method: protein-binding microarray; form: double-stranded DNA, one strand shown; sample: in vitro; concentration: 2540 nM top; setting: 60-bp whole probe; together with: salmon DNA 0.4 mg/ml; baseline: random background probes; reading: higher = stronger binding; measurement: fitted relative affinity; all sequences stand within: GCCTAGCAC … GTCTTGATTCGCTTGACGCTGCTG
Target: Interferon regulatory factor 3, full length, phosphomimetic (IRF3, Homo sapiens, UniProt Q14653, residues 1-427, S386D/S396D/S398D/S402D/T404D/S405D)
GGATTTCAGTTTCTCTTTCCGTGCTAG: 6.12 z-score
TCAATGATCTTCCTTCATACTGTGCTA: -0.206 z-score
GACGACTTCAGTTCCGAGACGTGCTAG: 0.279 z-score
GGATGTGTCTTAAATAGGGGAGTGCTA: 0.168 z-score
TTAGGACTGCGGACTGGGTTAGTGCTA: -0.837 z-score
TAAGGTCTCGGTCTCGGTTAGTGCTAG: 0.975 z-score
TTGGGTTTCGGGACTGGGTTAGTGCTA: 2.96 z-score
CTAGATATCAGTATCGATTAGTGCTAG: 1.94 z-score
CACGGTATCGGTTTCGGGACGTGCTAG: 7.2 z-score
TCATCTTTCCTTCTTGAACTGTGCTAG: 6.17 z-score
TTAGGACTGCTTTCCCTTTAGTGCTAG: 4.16 z-score
TTAGGTCTCGGGCTCGGTTAGTGCTAG: -0.609 z-score
TCAACTTTCTTTCAAATACTGTGCTAG: 1.28 z-score
TTAGAACTGAGTCTCGATGAGTGCTAG: -0.641 z-score
TTATATATCAGTCTCGATTAGTGCTAG: 1.31 z-score
CTTTCTTTCCATACTGCAAGGTGCTAG: 7.5 z-score
TCATTTTTTTTCATCATTGCGTGCTAG: 1.03 z-score

Sample 2 — method: RNAcompete; form: RNA; sample: in vitro; concentration: 20 nM; setting: 7-mer, probes averaged, single round; baseline: mean of 7-mers; reading: higher = stronger binding; measurement: 7-mer Z-score
Target: PABPC1L2, full length, GST fusion (mouse, UniProt A0ABA7IW68)
Residues (chain): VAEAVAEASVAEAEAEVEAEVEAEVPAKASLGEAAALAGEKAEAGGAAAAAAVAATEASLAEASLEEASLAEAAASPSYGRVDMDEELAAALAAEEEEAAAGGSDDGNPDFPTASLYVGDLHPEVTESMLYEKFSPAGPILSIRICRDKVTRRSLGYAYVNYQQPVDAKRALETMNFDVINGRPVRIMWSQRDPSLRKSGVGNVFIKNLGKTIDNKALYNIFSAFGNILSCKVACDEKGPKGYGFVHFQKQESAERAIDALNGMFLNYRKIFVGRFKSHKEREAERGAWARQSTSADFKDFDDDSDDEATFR
ACCGUGA: -0.0953
CCGGGAU: -0.0808
ACUGAAG: -0.0645
AUAUGGG: 0.263
AUUGGUG: -0.0989
GAAUGUU: -0.266
UGGCGGC: 0.0152
AUCGCAC: -0.162
CUUAGGC: -0.306
GCGUACC: -0.231
CCCCUGU: -0.416
GAGCCCU: -0.269
GUGGUGC: 0.00254
GCGGCUA: -0.0591
UGCAUAA: 0.146
UCCCGGG: -0.316
UCCUAUA: -0.195
CGACUCC: -0.231
CUAUCUG: -0.18
CCAACGC: -0.298
AUCGUUA: -0.255
CACGUAC: -0.191
ACGGGAG: 0.0877
GGAGGGC: 0.256
GUUAUCG: -0.242

Sample 3 — Molecule: B1 (RNF2 RING domain); method: yeast two-hybrid; sample: yeast; setting: mostly zero background; baseline: not given; reading: higher = stronger interaction; measurement: lacZ reporter activity
B1: RNF2 RING domain (UniProt Q99496); chain SPRSLHSELMCPICLDMLKNTMTTKECLHRFCADCIITALRSGNKECPTCRKKLVSKRSLR
UBE2S UBC core domain (UniProt Q16763): 0
UBE2D4 UBC core domain (UniProt Q9Y2X8): 0
UBE2T UBC core domain (UniProt Q9NPD8): 0
UBE2I UBC core domain (UniProt P63279): 0
UBE2D2 UBC core domain (UniProt P62837): 0
UBE2Z UBC core domain (UniProt Q9H832): 0

Sample 4 — method: universal PBM; form: double-stranded DNA, one strand shown; sample: in vitro; concentration: 600 nM; reading: higher = stronger binding; measurement: E-score
Target: Sal-like protein 4, full length isoform A (SALL4, Homo sapiens, UniProt Q9UJQ4, residues 1-1053)
Setting: 8-mer, flanks averaged, mean of replicates
AGCAGCAC: -0.262
ACCAAAGT: 0.012
AAAGAGCG: -0.106
AATGTCTA: 0.247
CTACGACC: -0.155
ATTTCCTC: 0.0897
CTTCCTGA: 0.0469
GCCTCGAA: -0.156
AACCCAGA: -0.143
AAGAGATG: 0.00592
CGAGCGGA: -0.285
ATTCGAGA: 0.129
CGTAAGCA: -0.105
ACTCGTTC: 0.062
AGACTGTC: -0.117
TGGCGCAA: 0.0475
AATGGTTC: 0.0807
CCCGGGAG: -0.416
CTATCTAA: 0.114
GCCGTGTA: -0.108
GTAAGAAA: 0.0364
GCGCTCAC: -0.204
GGTTGCCA: -0.195
ATATCGAA: 0.271
GATTTAAC: 0.0844

Sample 5 — target: CCNB3, cyclin fold, Cln2 fusion (human); method: yeast growth competition, sequencing; sample: yeast; setting: strong parent motif; baseline: not given; reading: higher = stronger binding; measurement: normalised enrichment score
Parent: SCAPER docking peptide (human); SNARRSLNFGGST
SNARESLNFGGST [R5E]: 0.238
SNSRRSLNFGGST [A3S]: 0.305
SNAKRSLNFGGST [R4K]: 0.457
SNARRSLNEGGST [F9E]: -0.0921
KNARRSLNFGGST [S1K]: 1.07
SNARRSLNYGGST [F9Y]: 0.398
SNARRSLNFGGLT [S12L]: 1.88
MNARRSLNFGGST [S1M]: 2.01
SNARRSLNRGGST [F9R]: 0.161
SNARDSLNFGGST [R5D]: 0.529
SNARRSLNVGGST [F9V]: 0.0379
SNARRSRNFGGST [L7R]: -0.13
SNFRRSLNFGGST [A3F]: 1.05
SNARRSINFGGST [L7I]: 0.557
SNARRSLYFGGST [N8Y]: 0.915
SNARRSLNFGGSY [T13Y]: 1.14
SNARRSLNKGGST [F9K]: 0.0391
SLARRSLNFGGST [N2L]: 1.5
SNARRSLMFGGST [N8M]: 0.557
SNARRSLNFGGSR [T13R]: 1.55
SEARRSLNFGGST [N2E]: 1.2
SNARWSLNFGGST [R5W]: 0.00991
SNARRSENFGGST [L7E]: 0.272
SNARRSLNFGGDT [S12D]: 1.31
SNARRSKNFGGST [L7K]: 0.267

Sample 6 — method: DHFR PCA, deep sequencing; sample: yeast; together with: (+)-ABA 2500 µM; baseline: wild-type fitted maximum; reading: higher = stronger binding; measurement: relative binding score
Target: ABI1, truncated, D143A, DHFR fusion (Arabidopsis thaliana)
Setting: methotrexate growth selection, single substitutions
Parent: PYL1, truncated, DHFR fusion (Arabidopsis thaliana); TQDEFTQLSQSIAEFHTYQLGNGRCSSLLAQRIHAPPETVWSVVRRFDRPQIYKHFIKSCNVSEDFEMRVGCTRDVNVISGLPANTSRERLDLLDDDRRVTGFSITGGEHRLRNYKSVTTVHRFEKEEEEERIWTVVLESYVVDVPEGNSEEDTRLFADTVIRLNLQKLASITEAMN; partner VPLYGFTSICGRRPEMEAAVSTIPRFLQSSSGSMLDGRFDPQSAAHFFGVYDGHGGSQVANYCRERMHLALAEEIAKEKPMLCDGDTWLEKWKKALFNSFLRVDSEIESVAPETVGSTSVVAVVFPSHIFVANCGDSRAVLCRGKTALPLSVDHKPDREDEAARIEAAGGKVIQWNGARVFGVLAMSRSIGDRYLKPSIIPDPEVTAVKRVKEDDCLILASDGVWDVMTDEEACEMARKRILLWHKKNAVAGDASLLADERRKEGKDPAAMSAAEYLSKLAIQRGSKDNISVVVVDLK
T101M: 101%
E128N: 106%
R163N: 90.7%
R49L: 88.8%
R24W: 86.2%
E129M: 102%
T120L: 19.8%
V121E: -11.1%
T154H: 17.4%
L94A: 78.5%
G81Q: 57.8%
S104E: 88.3%
L166Y: 41.9%
E127Q: 105%
S104G: 79.8%
K126W: 101%
V100R: 91.6%
D48I: 40%
K116T: 94.9%
L94W: 101%
M176Y: 94.4%
D153N: 80.1%
T6A: 105%

Sample 7 — target: JUND, bZIP domain (human); method: DHFR protein complementation; sample: yeast; baseline: wild-type JUN-FOS pair; reading: higher = stronger binding; measurement: binding fitness
Setting: single substitutions, most at no-binding floor
Parent: JUN, bZIP domain (human); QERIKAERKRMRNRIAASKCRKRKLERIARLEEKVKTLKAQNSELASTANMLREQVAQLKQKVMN
L31W: -1.34 natural log
L45Q: -1.43 natural log
L38C: -1.45 natural log
K36P: -1.42 natural log
L31S: -1.44 natural log
S43P: -1.51 natural log
L52K: -1.47 natural log
E44P: -1.46 natural log
Q55W: -1.37 natural log
R53I: -1.27 natural log
L31N: -1.37 natural log
V35E: -1.3 natural log

A few entries again (sample 1):
CTTTCTTTCCATACTGCAAGGTGCTAG: 7.5 z-score
TAAGGTCTCGGTCTCGGTTAGTGCTAG: 0.975 z-score
GACGACTTCAGTTCCGAGACGTGCTAG: 0.279 z-score
TCAATGATCTTCCTTCATACTGTGCTA: -0.206 z-score
TCAACTTTCTTTCAAATACTGTGCTAG: 1.28 z-score
TCATCTTTCCTTCTTGAACTGTGCTAG: 6.17 z-score
CACGGTATCGGTTTCGGGACGTGCTAG: 7.2 z-score
TTAGAACTGAGTCTCGATGAGTGCTAG: -0.641 z-score
GGATTTCAGTTTCTCTTTCCGTGCTAG: 6.12 z-score
TTAGGACTGCTTTCCCTTTAGTGCTAG: 4.16 z-score
TTGGGTTTCGGGACTGGGTTAGTGCTA: 2.96 z-score
TCATTTTTTTTCATCATTGCGTGCTAG: 1.03 z-score
GGATGTGTCTTAAATAGGGGAGTGCTA: 0.168 z-score
TTAGGTCTCGGGCTCGGTTAGTGCTAG: -0.609 z-score
TTATATATCAGTCTCGATTAGTGCTAG: 1.31 z-score
CTAGATATCAGTATCGATTAGTGCTAG: 1.94 z-score
TTAGGACTGCGGACTGGGTTAGTGCTA: -0.837 z-score
